Published values collected from several papers.
Numbered parts are unrelated; each lists some results of a single study. Positions count from the first letter of the parent shown.
Chain of UniProt P20309 (whole entry, looked up): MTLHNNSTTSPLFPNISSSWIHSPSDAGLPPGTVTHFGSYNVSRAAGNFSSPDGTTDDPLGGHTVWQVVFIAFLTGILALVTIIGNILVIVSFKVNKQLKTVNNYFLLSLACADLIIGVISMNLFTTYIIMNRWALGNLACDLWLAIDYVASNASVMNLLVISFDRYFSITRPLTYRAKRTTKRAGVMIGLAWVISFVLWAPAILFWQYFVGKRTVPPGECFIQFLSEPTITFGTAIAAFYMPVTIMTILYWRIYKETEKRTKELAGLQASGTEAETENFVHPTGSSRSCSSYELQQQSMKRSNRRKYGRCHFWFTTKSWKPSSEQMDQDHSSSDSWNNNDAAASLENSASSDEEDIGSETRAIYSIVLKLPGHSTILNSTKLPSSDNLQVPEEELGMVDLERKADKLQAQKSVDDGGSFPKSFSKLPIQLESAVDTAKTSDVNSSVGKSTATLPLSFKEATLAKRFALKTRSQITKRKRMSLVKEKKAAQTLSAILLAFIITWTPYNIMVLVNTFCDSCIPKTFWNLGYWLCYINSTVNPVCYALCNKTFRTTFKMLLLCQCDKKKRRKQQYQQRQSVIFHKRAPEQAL
Chain of UniProt P11229 (whole entry, looked up): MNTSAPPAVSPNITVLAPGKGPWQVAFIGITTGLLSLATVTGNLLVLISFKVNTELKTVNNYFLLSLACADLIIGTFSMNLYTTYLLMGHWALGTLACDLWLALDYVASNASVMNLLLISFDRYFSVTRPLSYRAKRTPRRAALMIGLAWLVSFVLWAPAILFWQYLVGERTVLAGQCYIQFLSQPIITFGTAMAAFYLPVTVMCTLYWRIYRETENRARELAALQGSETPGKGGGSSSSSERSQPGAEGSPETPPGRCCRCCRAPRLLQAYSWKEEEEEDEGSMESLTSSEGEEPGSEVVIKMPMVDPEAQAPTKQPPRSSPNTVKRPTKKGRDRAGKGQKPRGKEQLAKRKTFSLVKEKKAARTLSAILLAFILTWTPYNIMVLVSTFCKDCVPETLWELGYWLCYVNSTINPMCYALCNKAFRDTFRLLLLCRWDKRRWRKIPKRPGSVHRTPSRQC
Chain of UniProt P23975 (whole entry, looked up): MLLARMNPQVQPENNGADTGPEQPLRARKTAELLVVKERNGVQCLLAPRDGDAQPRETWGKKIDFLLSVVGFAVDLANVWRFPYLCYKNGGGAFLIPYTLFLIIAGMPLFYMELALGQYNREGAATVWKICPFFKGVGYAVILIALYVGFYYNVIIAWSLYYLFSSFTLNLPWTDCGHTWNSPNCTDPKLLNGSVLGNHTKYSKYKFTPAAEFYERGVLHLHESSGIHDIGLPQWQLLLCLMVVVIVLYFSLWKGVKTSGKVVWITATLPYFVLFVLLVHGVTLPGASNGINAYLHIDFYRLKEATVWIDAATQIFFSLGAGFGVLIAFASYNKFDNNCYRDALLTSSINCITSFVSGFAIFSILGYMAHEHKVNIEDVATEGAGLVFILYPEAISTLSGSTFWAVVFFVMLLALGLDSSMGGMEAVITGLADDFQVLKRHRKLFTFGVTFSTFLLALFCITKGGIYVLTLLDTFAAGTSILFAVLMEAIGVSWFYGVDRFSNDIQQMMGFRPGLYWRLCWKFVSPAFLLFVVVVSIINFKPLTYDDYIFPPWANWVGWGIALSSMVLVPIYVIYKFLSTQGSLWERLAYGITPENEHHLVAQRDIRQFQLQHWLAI

Study 1 — method: EMSA with sequencing; form: double-stranded DNA, one strand shown; medium: in vitro; concentration: 10 and 20 nM; relative to: negative control set to 0; direction: higher = stronger binding
Target: Hepatocyte nuclear factor 3-alpha (Foxa1, Mus musculus, UniProt P35582, residues 1-468, full length assumed)
Chain of UniProt P35582 (whole entry, looked up): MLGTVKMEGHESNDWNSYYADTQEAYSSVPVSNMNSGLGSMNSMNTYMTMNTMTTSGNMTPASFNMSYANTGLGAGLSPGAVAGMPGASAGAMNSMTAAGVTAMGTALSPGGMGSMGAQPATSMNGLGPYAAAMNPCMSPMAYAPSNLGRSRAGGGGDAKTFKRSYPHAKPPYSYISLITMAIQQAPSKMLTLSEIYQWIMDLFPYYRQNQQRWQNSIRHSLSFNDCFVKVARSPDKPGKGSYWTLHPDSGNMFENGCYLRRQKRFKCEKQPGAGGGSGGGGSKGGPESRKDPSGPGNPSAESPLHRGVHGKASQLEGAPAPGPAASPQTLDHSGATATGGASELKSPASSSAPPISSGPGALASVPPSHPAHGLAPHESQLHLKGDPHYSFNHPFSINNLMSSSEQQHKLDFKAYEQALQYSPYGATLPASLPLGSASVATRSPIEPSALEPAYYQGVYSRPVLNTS
Setting: whole designed probe, mean of two concentrations, ends assumed
Constant ends, left off below: GTGAGCGGTGCCCATTGATGGGGAAC … TTTCACTGGGATCGTGGGGAC
Strand | normalised bound fraction
GACAGTACATGTTTTAGGATTTTTGGACCACACAGTCTCTGTCACAATGACTCAGCTTTGCCATTGTAGCGTGCAAACAGCCACAAACCATATGCAAACAAATGTATGGAGGGTGTGGTCCAATAAAACTTTATTTACAAAAGCAGGAGGACAGTGGAGTTGGCTTGCAGACAGTCATTTGCAGAGCCCTGAT | 0.444 ratio
AAGCAGCCAGTGTCTCTGACACCATACAAATAAAATGCAGCACCATTTGGTGATCCAGCCTATGTTTATTCTTCTCCCTTTGGCAACAGACACTATTTACTTACTATCTTTCCCAGAGCAATAGAGGGAAGCCAGGAAAGTGCTGAGCTTGTATTCTACAACCTGAGAAGGAAGTAAGGGAAAGGAAGAGCTC | 0.422 ratio
AGTTCAGAATAGTATTTCTACTGAATGTGTATTGTTTTACCCATCCTAAAGTTGAAGAATCACAAGTCAAACCATCATAAGTCCAGGATTATTAGATTATATATCTTGTAGGGAAGGGAAAAGTGAAAGGAAATAATGTTCTTTCTACCCTTCTACATTATTGGCTGGAGCCCCTGTAACAAAAGACAAATTA | -0.022 ratio
TCCTCTGACAGATCAAATTATTAAATTCTGCTTGGGGAAGGTATGGGGCACTCCTCTTGGTTGAAGCAATGCTGTACTTTTTATTCCTGCTGAGTAAATAGCCTCAAGTCAAACTACTTGCCCTAACTAATGATCAAACATATCCAGGAATTCTGTACAAGAAATGCATTCTGCTCTCCTTTGAAGTGCATTG | 0.224 ratio
ATCTTCCCCCTCTTCCTTGCCCCACCAGCTCACCTACGGGGGTTATTTGCACAAAGGAAAATAAATAAAGCCGGCATTCGTTAACCCTCTTCACGCGCATACTGCTGTTTGCTCTGGATCTAACATGGTCCTTTGGCGAGGCGTGGCTCCGGGAGAGCAAAGCACCGTGTCAGGGCCATGATCCGGGCTCGCC | 0.385 ratio
ACAGATGCAAAGATGGGGACTCTGAGAACTCGGGTCATCTCTTGCCAAGCTGCTGAATAGCCAGAGGTAGACCCAGGTTCTTTGCAAACTTCCTTATTTACATAGCCATCAAACTGCTTTAAACCTTTGTATTTCTAAAACTGACTTAACAAGTTAAAACAAGTTCAGATCTCTTTGTGGCAACCCAAGTTCT | 0.418 ratio
CAGCCTGCAGTGCGCTCAGTTAAACAATTCCAAATCAAGGAATTTTGTCTGATACAAGGAATTTGGGGTGTGTTTTCCTAACATGCACCCTGGGTAAATAGACTGGGGGGGGGGGCCATTTCCTGACCCAGCTGAAGCCAATATGCATTGCGGCCACAAGGTGGCGCGTCTGGGCCTGGCAAACCCCTGTGCT | 0.188 ratio
ATACTGGTATTACCCACCTCACTATTATGAAGTATAACATACAGCGTGCACAGCACAGTGTCTGGCCCATTGTAGTTGCTCAATAGCTTTTAGAGATTGCTTTTATGAGTTTGAGTCATCTTTGTGGTGAGGATTACAGACCCTGACCCCTCTACTTGAGGTAGAACCAAGTCTATGGTTTCTCAGCCTGGGC | -0.0587 ratio

Study 2 — concentration: 10 µM
SMILES: Cc1cc2c(-c3ccco3)cnc(N[C@H]3CCN(C)C[C@@H]3C(=O)NC3CCCCC3)c2[nH]c1=O
target | test | inhibition
CHRM3 (Homo sapiens, UniProt P20309) | ligand displacement | 28.9%
CHRM1 (Homo sapiens, UniProt P11229) | ligand displacement | 12%
SLC6A2 (Homo sapiens, UniProt P23975) | cell-free assay | 32.4%

Study 3 — method: protein binding microarray; form: double-stranded DNA, one strand shown; medium: in vitro; concentration: not given; relative to: not given; direction: higher = stronger binding
Target: Histone acetyltransferase KAT6A, both winged helices, GST fusion (KAT6A, Homo sapiens, UniProt Q92794, residues 1-181)
Setting: 8-mer, flanks averaged, mean of 2 arrays, mostly near background
Residues (chain): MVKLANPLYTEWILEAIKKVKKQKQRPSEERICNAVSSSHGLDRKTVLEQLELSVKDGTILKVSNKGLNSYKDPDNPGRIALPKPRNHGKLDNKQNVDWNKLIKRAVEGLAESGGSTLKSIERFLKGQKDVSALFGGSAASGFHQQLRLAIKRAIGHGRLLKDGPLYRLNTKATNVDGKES
Strand | E-score
AATGAAAG | -0.0802
ACGACGGA | 0.222
TCTACAAA | -0.169
GCCGTTTA | 0.239
GGGACAAC | -0.0338
GGGTGAAA | -0.0913
GGTTTCTA | -0.0824
GGTAAACC | 0.0677

Study 4 — target: CCNA1, cyclin fold, Cln2 fusion (human); method: yeast growth competition, sequencing; medium: yeast; setting: strong parent motif; relative to: not given; direction: higher = stronger binding; parent: viral docking peptide; TSVRRALFTGGSD
Variant | normalised enrichment score
T9L | 1.37
T9G | 1.09
F8N | 0.188
A6E | 1.59
G11T | 1.46
V3Q | -0.169
R5N | 0.274
L7K | 0.0545
G11I | 0.753
V3W | 0.291
G10L | 0.833
A6C | 1.31
A6F | 0.183
L7Q | 0.0142
F8T | -0.276
V3H | 0.0588
G11Y | 0.919
G10D | 1.63
L7S | -0.172
S2I | 0.435
L7R | 0.0497
S2V | 0.728
R5L | -0.222
G10Q | 1.33
F8W | 0.566

Study 5 — read-out: peptide-MHC binding; form: peptide; concentration: concentration not given
Target: HLA class I histocompatibility antigen, C alpha chain, allele C*04:01 (Homo sapiens, UniProt P10321)
Molecule | binding
TPGRYRTAV | inactive
WYYDFHFFV | inactive
FYYNAFHWA | inactive
FTFKVNSVK | inactive
TVIDVNTGK | inactive
AEFGPWQTV | inactive
RMFKRVFNM | inactive
FADINGKLY | inactive
